Published values of several laboratories.
Lines come from different studies, so protocols differ. Numbers after ± are the reported error.
CPL: CPL (Toxoplasma gondii, UniProt Q6DMN0)
Aminopeptidase N: Aminopeptidase N (Neisseria meningitidis, UniProt Q9JYV4)
Oprd1: Delta-type opioid receptor (Oprd1, Rattus norvegicus, UniProt P33533)

Structure (SMILES)	target	test	test system	setting	scale	measurement	value
C[C@@H]1Oc2c(c(=O)oc3c2ccc2ccccc23)[C@@H]1C	SYK (Homo sapiens, UniProt P43405)	enzyme activity, inhibitor, ADP-Glo		5 µM		remaining activity	72 ± 2%
CCCCCCCCNP(=O)(Nc1ccccc1)O[C@@H]1O[C@H](CO)[C@@H](O)[C@H](O)[C@H]1F (stereo partly shown)	GBA1 (Homo sapiens, UniProt P04062)	enzyme activity, irreversible inhibitor		pH 5.5, 37 °C, added: 2,4-dinitrophenyl beta-D-glucopyranoside		kinact/Ki	358 M⁻¹ s⁻¹
CC(C)CCN(Cc1ccc(Cl)cc1)c1nc(C#N)nc(N2CCOCC2)n1	CPL	enzyme activity, inhibitor			relative to: human over Toxoplasma IC50	selectivity ratio	0.2
CC(=O)/C(C#N)=C/c1cccc(C(N)=O)c1	Genome polyprotein, 3C protease (Human enterovirus D68, UniProt Q68T42, C1641Y/I1565V/I1594T/R1603K/Y1579H)	isothermal titration calorimetry	enterovirus D68	DTT 0.1 mM		-TΔS	0.84 kJ/mol
NC(=O)Cc1cc(=O)oc2cc(NC(=O)[C@@H](N)Cc3ccc(O)cc3)ccc12	Aminopeptidase N	enzyme activity, substrate		pH 7.5, 37 °C		Km	46.4 ± 2.5 µM
CCCCCCCCCCNC(=O)c1ccc(C[C@H](N)C(=O)N2Cc3ccccc3C[C@H]2C(=O)N[C@@H](Cc2ccccc2)C(=O)N[C@@H](Cc2ccccc2)C(=O)O)cc1	OPRD1 (Homo sapiens, UniProt P41143)	agonist	HEK293 cells expressing OPRD1			EC50	0.239 nM
N#Cc1nc(N2CCOCC2)nc(N(Cc2ccc(F)cc2)CC2CCCC2)n1	CPL	enzyme activity, inhibitor			relative to: human over Toxoplasma IC50	selectivity ratio	0.81
C=C(C)C(=O)Oc1ccc(C(C)(C)c2ccc(OC(=O)C(=C)C)cc2)cc1	Aromatase (CYP19A1, Homo sapiens, UniProt P11511)	inhibitor, tritiated water release	JEG-3	18 h		LOEC	100 µM
CS(C)(=O)=Nc1ccc(-c2ccc(-c3nc4cc(O[C@@H]5CO[C@H]6[C@@H]5OC[C@H]6O)[nH]c4cc3F)cc2)cc1	PRKAB2/PRKAA1, with gamma3 subunit (Homo sapiens, UniProt O43741+Q13131)	enzyme activity, activator		60 min, 50% above basal activity, added: ATP 50 µM		EC150	0.95 nM
CC(=O)NCC(=O)N[C@@H](C)C(=O)N[C@@H](CCCCNP(=O)(O)O)C(=O)NCC(=O)NCC(N)=O	Phospholysine phosphohistidine inorganic pyrophosphate phosphatase (LHPP, Homo sapiens, UniProt Q9H008)	substrate		100 µM, pH 7.8		initial velocity	2.72e-08 M/s
O=C(O)COc1ccc(Cl)cc1	Chloride channel protein (Torpedo marmorata, UniProt P21564, C212S)	chloride channel gating, inhibitor, kinetic model fit				closed state stabilisation factor	20
Cn1ccc(-c2ccc(Cn3cc(C(=O)N[C@H]4CCCC[C@@H]4O)c4c(F)cc(F)cc43)cn2)n1	Chrm1 (Rattus norvegicus, UniProt P08482)	calcium mobilization, positive allosteric modulator	CHO cells	added: EC20 acetylcholine	relative to: ACh maximum	maximum response	92 ± 4%
CCCCCCn1c2ccccc2c2cc(C(=O)c3cccc4ccccc34)ccc21	CNR1 (Homo sapiens, UniProt P21554)	GTPγS binding, agonist		cell membranes		Emax	82.2%
Cc1cc(O)cc(C)c1CC(N)C(=O)NC1CCNc2c(Br)cc(Cc3ccccc3)cc21 (stereo not shown)	Oprd1	GTPγS binding, agonist	C6 cells expressing DOR		relative to: DPDPE at 10 µM	maximal stimulation	69%
CN1CCN(C(=O)N[C@@H](Cc2ccccc2)C(=O)N[C@H](/C=C/S(=O)(=O)c2ccccc2)CCc2ccccc2)CC1	Cathepsin K (CTSK, Homo sapiens, UniProt P43235)	inactivator		pH 5.5, 25 °C, added: Z-LR-AMC		kinact	0.022 ± 0.004 s⁻¹
O=C(Nc1cccnn1)N1CCC(=Cc2cccc(Oc3ccc(C(F)(F)F)cn3)c2)CC1	Faah (Mus musculus, UniProt O08914)	enzyme activity, inhibitor, ex vivo	mouse, brain	oral, 8 h		ED50	4.3 µg/kg

Structure (SMILES)	target	test	test system	setting	scale	measurement	value
CC(C)OC(=O)c1ccc(OC(=O)C2CCN(C(=O)OC(C)(C)C)CC2)cc1	clpP (Staphylococcus aureus, UniProt Q2G036)	enzyme activity, inhibitor				inhibitory concentration	< 1 µM
Cc1cc(O)cc(C)c1CC(N)C(=O)NC1CCNc2c1cc(Cc1ccccc1)cc2C(F)(F)F (stereo not shown)	Oprd1	GTPγS binding, agonist	C6 cells expressing DOR		relative to: DPDPE at 10 µM	maximal stimulation	42%
CC(=O)N[C@H]1[C@@H](O[C@H](C)[C@H](NC(=O)[C@H](CO)NC(=O)CNC(=O)[C@@H]2CCCN2C(=O)[C@H](C)NC(=O)[C@@H]2CCCN2C(=O)[C@@H](N)CCCNC(=N)N)C(=O)N[C@@H](C)C(=O)N2CCC[C@H]2C(=O)N2CCC[C@H]2C(=O)N[C@@H](C)C(=O)N[C@@H](Cc2c[nH]cn2)C(=O)NCC(=O)O)O[C@H](CO)[C@H](O)[C@@H]1O	anti-MUC1 Fab 16 A wild type, murine	SPR			relative to: peptide KD over Glyco-T KD	KD ratio	30.6 fold
Nc1nc2c([C@@H]3O[C@@H]4COP(=O)(O)O[C@H]5[C@@H](O)[C@H](n6cnc7c(=O)[nH]c(N)nc76)O[C@@H]5COP(=O)(O)O[C@H]4[C@H]3O)snc2c(=O)[nH]1	rocR (Pseudomonas aeruginosa, UniProt Q9HX69)	cyclic dinucleotide hydrolysis, substrate, HPLC				product P2 share	42%
OC[C@@H]1[C@@H](O)[C@H](O)[C@@H](O)[C@@H]2N[C@H]12	GBA1 (Homo sapiens, UniProt P04062, R534H)	enzyme activity, inhibitor		pH 5.2		kinact/KI	317 M⁻¹ s⁻¹
CC(C)P(=S)(NP(=[Se])(C(C)C)C(C)C)C(C)C	Alpha-amylase (Bacillus subtilis, UniProt P00691)	binding, Van't Hoff analysis		pH 6.8, 298–310 K		ΔS	-0.203 kJ/mol/K
CC(=O)N[C@H]1CSC(=O)[C@H](CC(C)C)NC(=O)[C@H](CC(C)C)NC(=O)[C@H](Cc2ccccc2)NC(=O)[C@H](CC(=O)O)NC1=O	Accessory gene regulator protein C (Staphylococcus aureus, UniProt O33590)	reporter gene, antagonist	P3-gfp reporter AH1747		relative to: compound over AIP-III D4A	IC50 ratio	~1000 fold
O=c1c(O)c(-c2cc(O)ccc2O)oc2cc(O)cc(O)c12	ACHE (Homo sapiens, UniProt P22303)	enzyme activity, inhibitor		62.5 µg/mL		inhibition	45.8 ± 2.31%
CC[C@H](C)[C@H](NC(=O)[C@H](CC(N)=O)NC(=O)[C@H](CC(N)=O)NC(=O)[C@@H](N)CCCNC(N)=O)C(=O)N1C[C@@H](n2cc([C]34[CH]5[CH]6[CH]7[CH]3[Fe]6754389%10[CH]4[CH]3[CH]8[CH]9[CH]4%10)nn2)C[C@H]1C(=O)N[C@@H](Cc1csc2ccccc12)C(=O)N[C@@H](CO)C(N)=O (stereo partly shown)	env (Human immunodeficiency virus type 1 group M subtype B, UniProt P35961)	ITC		concentration not given, pH 7.4, 25 °C		binding enthalpy	-62.3 ± 31.4 kJ/mol
CC(C)C[C@H](NC(=O)[C@H](C)NC(=O)[C@H](C)NC(=O)[C@H](C)NC(=O)[C@H](C)NC(=O)[C@@H](NC(=O)[C@H](CC(C)C)NC(=O)[C@H](CCCCN)NC(=O)[C@H](CCC(=O)O)NC(=O)[C@@H](NC(=O)[C@H](CO)NC(=O)CN)C(C)C)[C@@H](C)O)C(=O)N[C@@H](CCC(N)=O)C(=O)N[C@@H](CCCNC(=N)N)C(=O)N[C@@H](CC(C)C)C(=O)N[C@@H](CCCCN)C(=O)N[C@@H](CC(N)=O)C(=O)N[C@@H](CCC(=O)O)C(=O)N[C@@H](CCCNC(=N)N)C(=O)N[C@@H](Cc1c[nH]cn1)C(=O)N[C@@H](CCC(=O)O)C(=O)N[C@@H](CCC(=O)O)C(=O)N[C@@H](C)C(=O)N[C@@H](CCC(=O)O)C(=O)N[C@@H](CC(C)C)C(=O)N[C@@H](CCC(=O)O)C(=O)N[C@@H](CCCNC(=N)N)C(=O)N[C@@H](CC(C)C)C(=O)N[C@@H](CCCCN)C(=O)N[C@@H](CO)C(=O)N[C@@H](CCC(=O)O)C(=O)N[C@@H](Cc1ccc(O)cc1)C(=O)O	Plasminogen (PLG, Homo sapiens, UniProt P00747, C188G/E240D/L256Y)	binding, SPR		pH 7.4		koff	0.0967 s⁻¹
CC(=O)NC(Cc1ccc(Br)c(Cl)c1)C(=O)N[C@@H](C)C(=O)N1CCC[C@H]1C(=O)N1CCC[C@H]1C(=O)N[C@@H](CCC(=O)O)C(=O)N[C@@H](Cc1c[nH]cn1)C(=O)N[C@@H](CO)C(=O)N[C@H](C(=O)N[C@@H](C)C(N)=O)[C@@H](C)OP(=O)(O)O (stereo partly shown)	BRSK2 (Homo sapiens, UniProt Q8IWQ3)	enzyme activity, inhibitor		10 µM		inhibition	0.42%
CC(=O)N[C@@H](CC(C)C)C(=O)N[C@@H](CCC(=O)O)C(=O)N[C@@H](Cc1c[nH]cn1)C(=O)N[C@@H](CC(=O)O)C(=O)Nc1ccc2c(C)cc(=O)oc2c1	Caspase-9 (CASP9, Homo sapiens, UniProt P55211)	substrate		concentration not given, full-length		Vmax	139 ± 8.11 RFU/min
C=C(F)C(=O)N1CCN(c2nc(OC[C@@H]3CCCN3CCCOCCC(=O)N[C@H](C(=O)N3C[C@@H](O)C[C@H]3C(=O)NCc3ccc(-c4scnc4C)cc3)C(C)(C)C)nc3c2CCN(c2cccc4cccc(Cl)c24)C3)C[C@@H]1CC#N	GTPase KRas (KRAS, Homo sapiens, UniProt P01116, G12C)	immunoblot band shift	SW1573	2.5 µM		time to target engagement	≤ 1 h
CCN(Cc1ccccc1)C(=O)CCc1nc(CN2CCN(C(=O)Cc3ccc(OC)c(OC)c3)CC2)no1	KCNQ4 (Homo sapiens, UniProt P56696)	potassium current, whole-cell patch clamp	CHO, stable	3 nM		activation V1/2	-17 ± 1.16 mV
C=CC[C@H](N)C(=O)Nc1ccc2c(CC(N)=O)cc(=O)oc2c1	Aminopeptidase N	enzyme activity, substrate		pH 7.5, 37 °C		Km	59.7 ± 2.7 µM
